# Assay results collected from several papers.
# Each line is one published result; not all experiments were run side by side. ± gives the spread as reported.
# CYP2C8: Cytochrome P450 2C8 (CYP2C8, Homo sapiens, UniProt P10632)
SMILES,target,assay,test system,setting,IC50 [µM]
NS(=O)(=O)c1ccc(/N=N/c2cc(C(=O)O)c(O)c3ccccc23)cc1,"GLO1 (Homo sapiens, UniProt Q04760)","enzyme activity, inhibitor",,,10.5
Nc1ncnc2c1c(-c1ccc(Oc3ccccc3)cc1)nn2C1CCCN(C(=O)C2CC(Br)=NO2)C1 (mixture of isomers),"BLK (Homo sapiens, UniProt P51451)","enzyme activity, inhibitor",,,0.0069
N=C(Cc1ccccc1)NCCC[C@H](N)C(=O)O,"Nos2 (Mus musculus, UniProt P29477)","enzyme activity, inhibitor",,pH 7.4,5330
CC(C)(C)NCCCNC(=O)c1ccnc(Br)c1,"Lethal(3)malignant brain tumor-like protein 1 (Homo sapiens, UniProt Q9Y468)","methyl-lysine reader binding, inhibitor, AlphaScreen",,,> 100
CC[C@H](C)[C@H](NC(=O)[C@H](CCCNC(=N)N)NC(=O)[C@H](CC(N)=O)NC(=O)[C@H](C)NC(=O)[C@H](Cc1c[nH]cn1)NC(=O)[C@@H](NC(=O)[C@H](CCC(N)=O)NC(=O)[C@@H]1CCCN1C(=O)[C@@H](N)CC(=O)O)[C@@H](C)O)C(=O)N[C@@H](Cc1ccc(O)cc1)C(=O)N[C@@H](CCCNC(=N)N)C(=O)N[C@@H](CCSC)C(=O)N[C@H](C(=O)N[C@@H](CCCCN)C(=O)N[C@@H](CC(C)C)C(=O)N[C@@H](CC(C)C)C(=O)N[C@@H](CC(C)C)C(=O)NCC(=O)O)[C@@H](C)CC,Hsp90,"luciferase refolding, inhibitor",rabbit reticulocyte lysate,with: heat-denatured luciferase,94.5 ± 3.6
Oc1ccc(C#Cc2c(O)ccc3c2C(c2ccc(O)cc2)(c2ccc(O)cc2)c2cc(O)ccc2-3)cc1,"PDE4D (Homo sapiens, UniProt Q08499)","enzyme activity, inhibitor, fluorescence",,,0.19
O=c1nc(NO)ccn1[C@@H]1O[C@H](CO)[C@@H](O)[C@H]1O,CYP2C8,"enzyme activity, inhibitor","human, liver microsomes","20 min, pH 7.4",> 100
C=C(NC(=O)C(=C)NC(=O)c1csc(C2=NC3c4csc(n4)C4NC(=O)c5csc(n5)C(C(C)(O)C(C)O)NC(=O)C5CSC(=N5)C(=CC)NC(=O)C(C(C)O)NC(=O)c5csc(n5)C3(CC2)NC(=O)C(C)NC(=O)C(=C)NC(=O)C(=C)NC(=O)C(C(C)CC)NC2C=Cc3c(C(C)O)cc(nc3C2O)C(=O)OC4C)n1)C(N)=O (centres unmarked),"PSMB5 (Homo sapiens, UniProt P28074)","chymotrypsin-like activity, inhibitor",purified human 20S proteasome,"37 °C, 15 min preincubation, with: Suc-Leu-Leu-Val-Tyr-AMC",0.99 ± 0.01
O=C(O)C(O)Cc1ccc(O)c(O)c1 (centres unmarked),CYP2C8,"enzyme activity, inhibitor",,,34
COc1cc(OC)cc(-c2nc3ccc(C(=O)NCCCN4CCN(c5cccc(C)c5C)CC4)cc3n2C2CCC2)c1,"ACVRL1 (Homo sapiens, UniProt P37023)","target engagement in cells, BRET",,,> 30
C[C@]12CC[C@@H]3c4ccc(OCc5ccccc5)cc4CC[C@H]3[C@@H]1[C@H](OCCCO)CC2=O,"HSD17B1 (Homo sapiens, UniProt P14061)","enzyme activity, inhibitor, radiometric",,,0.78 to 1.5
CC[C@H](C)[C@H](NC(=O)[C@H](CO)NC(=O)[C@H](Cc1ccc(O)cc1)NC(=O)[C@H](CC(=O)O)NC(=O)[C@H](CO)NC(=O)[C@@H](NC(=O)[C@H](Cc1ccccc1)NC(=O)[C@@H](NC(=O)CNC(=O)[C@H](CCC(=O)O)NC(=O)[C@H](C)NC(=O)[C@@H](N)Cc1ccc(O)cc1)[C@@H](C)O)[C@@H](C)CC)C(=O)N[C@@H](C)C(=O)N[C@@H](CCSC)C(=O)N[C@@H](CC(=O)O)C(=O)N[C@@H](CCCCN)C(=O)N[C@H](C(=O)N[C@@H](CCCNC(=N)N)C(=O)N[C@@H](CCC(N)=O)C(=O)N[C@@H](CCC(N)=O)C(=O)N[C@@H](CC(=O)O)C(=O)N[C@@H](Cc1ccccc1)C(=O)N[C@H](C(=O)N[C@@H](CC(N)=O)C(=O)N[C@@H](Cc1c[nH]c2ccccc12)C(=O)N[C@@H](CC(C)C)C(=O)N[C@@H](CC(C)C)C(=O)N[C@@H](C)C(=O)N[C@@H](CCC(N)=O)C(=O)N[C@@H](CCCNC(=N)N)C(=O)NCC(=O)N[C@@H](CCCCN)C(=O)N[C@@H](CCCCN)C(=O)N[C@@H](CO)C(=O)N[C@@H](CC(=O)O)C(=O)N[C@@H](Cc1c[nH]c2ccccc12)C(=O)N[C@@H](CCCCN)C(=O)N[C@@H](Cc1c[nH]cn1)C(=O)N[C@@H](CC(N)=O)C(=O)N[C@H](C(=O)N[C@H](C(=O)N[C@@H](CCC(N)=O)C(=O)O)[C@@H](C)O)[C@@H](C)CC)C(C)C)[C@@H](C)CC,"Gastric inhibitory polypeptide receptor (Rattus norvegicus, UniProt P43219)","ligand displacement in cells, radioligand",,,0.00126
C[C@H](NC(=O)[C@H](CC(=O)NCC(C)(C)C)NC(=O)C(=O)c1c[nH]c2ccccc12)C(=O)NCc1ccc(F)cc1F,"Proteasome component C5/PSMB8 (Homo sapiens, UniProt P20618+P28062)",inhibitor,,,0.0011
CCOc1cncc(-c2ccc(NC(=O)C3(c4ccnc(NS(=O)(=O)C5CC5)n4)CCOCC3)nc2)n1,"Ctps1 (Mus musculus, UniProt P70698)","enzyme activity, inhibitor, mass spectrometry",,,0.0095

# Some of these lines once more:
SMILES,target,assay,test system,setting,IC50 [µM]
O=c1nc(NO)ccn1[C@@H]1O[C@H](CO)[C@@H](O)[C@H]1O,CYP2C8,"enzyme activity, inhibitor","human, liver microsomes","20 min, pH 7.4",> 100
C[C@]12CC[C@@H]3c4ccc(OCc5ccccc5)cc4CC[C@H]3[C@@H]1[C@H](OCCCO)CC2=O,"HSD17B1 (Homo sapiens, UniProt P14061)","enzyme activity, inhibitor, radiometric",,,0.78 to 1.5
